Measurements collected from several papers.
Each line is one published result; not all experiments were run side by side.
Target: Serine/threonine-protein kinase SIK1 (SIK1, Homo sapiens, UniProt P57059)
UniProt P57059, sequence (whole entry, looked up): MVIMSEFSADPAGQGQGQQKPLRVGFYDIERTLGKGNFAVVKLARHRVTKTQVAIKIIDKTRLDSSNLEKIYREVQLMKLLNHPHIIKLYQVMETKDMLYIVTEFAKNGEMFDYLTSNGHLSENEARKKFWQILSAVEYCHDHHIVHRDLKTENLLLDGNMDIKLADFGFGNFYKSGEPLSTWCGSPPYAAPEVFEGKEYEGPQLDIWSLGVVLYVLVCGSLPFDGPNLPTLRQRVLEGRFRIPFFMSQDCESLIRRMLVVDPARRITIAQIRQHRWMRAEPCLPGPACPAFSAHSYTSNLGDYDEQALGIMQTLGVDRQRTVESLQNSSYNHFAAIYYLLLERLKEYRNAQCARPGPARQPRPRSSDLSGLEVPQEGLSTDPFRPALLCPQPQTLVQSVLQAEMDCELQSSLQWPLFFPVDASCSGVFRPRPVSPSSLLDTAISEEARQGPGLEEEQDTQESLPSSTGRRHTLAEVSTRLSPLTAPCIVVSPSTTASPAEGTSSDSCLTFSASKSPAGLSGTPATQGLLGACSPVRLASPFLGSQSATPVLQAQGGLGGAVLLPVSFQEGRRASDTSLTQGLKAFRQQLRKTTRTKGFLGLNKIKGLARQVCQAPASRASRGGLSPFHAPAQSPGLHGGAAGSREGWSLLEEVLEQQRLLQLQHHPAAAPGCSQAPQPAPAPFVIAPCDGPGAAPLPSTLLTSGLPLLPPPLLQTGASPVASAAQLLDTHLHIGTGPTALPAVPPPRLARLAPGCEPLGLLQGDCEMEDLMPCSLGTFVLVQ

Structure (SMILES) | assay | setting | how to read | measurement | result
C1=C/COCc2cc(ccc2OCCN2CCCC2)Nc2nccc(n2)-c2cccc(c2)COC/1 |  | 0.1 µM | reference: DMSO control | remaining binding | 92%
c1cncc(-c2cccc(Nc3nccc(NC4CCCCC4)n3)c2)c1 | KINOMEscan | 10 µM |  | remaining binding | 46%
CCN(CC)c1ccc(C2=NNC(=O)CC2C)cc1[N+](=O)[O-] (stereo not shown) | enzyme activity, inhibitor | 10 µM | reference: vehicle | remaining activity | 112%
COc1cc(F)ccc1-c1ncnc(Nc2cccc(C[S@](C)(=N)=O)c2)n1 | kinase activity | 10 µM, together with: 10 µM ATP |  | remaining activity | 67%
O=C(NCCCN1CCOCC1)c1ccc(Nc2nccc(-c3cc4ccccc4s3)n2)cc1 | binding, KINOMEscan competition binding | 1 µM | reference: DMSO control | remaining binding | 62%
C=CC(=O)N1CCC(COCC(=O)N2CCN(c3nc(-c4cnc(N)nc4C(F)F)nc(N4CCOC[C@@H]4C)n3)CC2)CC1 | KINOMEscan | 1 µM | reference: DMSO control | remaining binding | 100%
Nc1ncc2c(n1)-c1c([nH]c3ccc(C#CC4CC4)cc13)CCCC2 | scanMAX | 1 µM |  | remaining binding | 90%
COc1cc(N2CCN(C)CC2)ccc1Nc1nc(N)n(C(=O)NCc2c(Cl)cccc2Cl)n1 | enzyme activity | 10 µM | reference: control | remaining activity | 8%
O=C(Nc1c[nH]nc1C(=O)NC1CCNCC1)c1cc(F)cc(F)c1 | scanMAX | 1 µM | reference: untreated | remaining binding | 97%
CNC(=O)[C@@H]1CC[C@@H](n2c(-c3ccc4cnccc4c3)nc3ccc(C(=O)NCc4cccc(C(N)=O)c4)cc32)C1 | KINOMEscan | 1 µM |  | remaining binding | 97%
CCCOc1ccc(OC)c(F)c1C(=O)c1ccc(C(=O)N[C@@H]2CNC[C@H]2NC(=O)c2ccc3[nH]ncc3c2)cc1 | enzyme activity | 10 µM |  | remaining activity | 37%
O=C(NCCCN1CCOCC1)c1ccc(Nc2ncc(Cl)c(-c3ccc(Cl)s3)n2)cc1 | binding, KINOMEscan competition binding | 1 µM | reference: DMSO control | remaining binding | 78%
Nc1ncnc2occ(-c3ccc(NC(=O)Nc4cc(C(F)(F)F)ccc4F)cc3)c12 | enzyme activity, inhibitor | 20 µM |  | remaining activity | 33%
Cc1cc(Nc2cc(N3CCN(C)CC3)nc(Sc3ccc(NC(=O)C4CC4)cc3)n2)[nH]n1 | kinase activity, KinaseProfiler | 0.03 µM, species human | reference: control | remaining activity | 96%
Cc1cnc(Nc2ccc(C(=O)N3CCC(N4CCCC4)CC3)cc2)nc1-c1cc2ccccc2s1 | binding, KINOMEscan competition binding | 1 µM | reference: DMSO control | remaining binding | 58%
FC(F)(F)Oc1cccc(-c2cnc3ccc(-c4ccncc4)nn23)c1 | KINOMEscan competition binding | 5 µM |  | remaining binding | 74%

For quick reference, copied from above:
Structure (SMILES) | assay | setting | how to read | measurement | result
COc1cc(N2CCN(C)CC2)ccc1Nc1nc(N)n(C(=O)NCc2c(Cl)cccc2Cl)n1 | enzyme activity | 10 µM | reference: control | remaining activity | 8%
Nc1ncc2c(n1)-c1c([nH]c3ccc(C#CC4CC4)cc13)CCCC2 | scanMAX | 1 µM |  | remaining binding | 90%
